Published values of several laboratories.
Each line is one published result; not all experiments were run side by side. Values joined by “and” are separate records of one study, mostly repeats; a detail may differ. Numbers after ± are the reported error.

O=C(NCc1cc(F)cc(F)c1)[C@@]1(O)CCN(c2ccc3[nH]ccc3c2)C1=O has a maximal inhibition of 37% (Breast PDX-derived tumour cells; colony formation, soft agar clonogenic; concentration not given, 8-10 days).
Under “log2 fold change”, CN1CCCNC(=O)c2cccc(c2)C(=O)NCCCN(C)CCCNc2cccc3c2C(=O)c2cccc(c2C3=O)NCCC1 is recorded as -0.953 (SAS; RNA-seq, measured: JRK mRNA; 1 µM, 6 h; relative to: untreated cells).
For Cc1ncsc1-c1ccc(C(C)NC(=O)C2CC(O)CN2C(=O)C(NC(=O)CCCCCCCCCCN2CCCC(Nc3ncc(Cl)c(Nc4ccccc4S(=O)(=O)C(C)C)n3)C2)C(C)(C)C)cc1 (stereo not drawn), “log2 fold change” read -1.93 (22Rv1; RNA-seq, measured: TCEANC2 mRNA; concentration not given; relative to: DMSO).
With Cc1[nH]c(=S)[nH]c(=O)c1/N=N/c1nnc(S)[nH]1 the inhibition was 19.5 ± 2.91% (Vero; cell viability, MTT; 10.0 µg/mL).
Cc1c(Cl)cccc1Nc1ccccc1C(=O)[Se]CC(=O)Nc1cccc(C(F)(F)F)c1 has a GI50 of 1690 nM (NCI60 ovarian subpanel; cell growth, inhibitor; five-dose).
For C[C@@H]1Cc2c([nH]c3ccccc23)[C@@H](c2c(F)cc(/C=C/C(=O)O)cc2F)N1C12CC(C1)C2, “log2 fold change” read -1.02 (MCF7; RNA-seq, measured: RET mRNA; 1 µM, 24 h, E2-induced gene; relative to: DMSO vehicle).
COC(=O)c1cc(NC2=NC(=O)C(=Cc3ccc(C)cc3)S2)ccc1OC(C)=O has a metabolite level of 0.17 fold change (MCF7; GC-MS, measured: Hydroxylamine; 1 µM; relative to: DMSO).
O=C(C[Se]C(=O)c1ccc2ccccc2n1)Nc1cccc(C(F)(F)F)c1 has a mean TGI of 4050 nM (NCI60 ovarian subpanel; total growth inhibition, inhibitor; five-dose).
The inhibition of Cc1[nH]c(=S)[nH]c(=O)c1/N=N/c1nnc(S)s1 is reported as 21.6 ± 0.399% (Vero; cell viability, MTT; 10.0 µg/mL).
For CC(C)c1ccc(N(C)c2ccc3c(c2)OCC[C@H]3CNc2cnccc2C(=O)O)cc1, the IC50 was 7.09 nM (NCI-H69; cell viability, CellTiter-Glo; 7 days).
CC(=O)Oc1ccccc1C(=O)[Se]CC(=O)Nc1cccc(C(F)(F)F)c1 gave a mean TGI of 16400 nM (NCI60 ovarian subpanel; total growth inhibition, inhibitor; five-dose).
CC1(C)C[C@@H](Nc2cccc(-c3sc(C(=O)O)c(OCC(=O)O)c3Cl)c2)CCN1S(=O)(=O)Cc1cccc(NC(=O)CN2CCC(c3ccc4c(c3)oc(=O)n4C3CCC(=O)NC3=O)CC2)c1 (stereo partly drawn) gave a pSTAT1 level of 2.87% and 2.77% and 3.16% and 3.82% and 2.69% and 2.96% (B16-F10; HTRF, measured: phospho-STAT1 Tyr701; 0.014 µM, added: IFN-γ; relative to: min-max normalised).
For O=C(C[Se]C(=O)c1cc2ccccc2s1)Nc1cccc(C(F)(F)F)c1, the GI50 was 1540 nM (NCI60 ovarian subpanel; cell growth, inhibitor; five-dose).
For CCOc1cncc(-c2ccc(NC(=O)C3(c4ccnc(NS(=O)(=O)C5CC5)n4)CCOCC3)nc2)n1, the IC50 was 20 nM (MOLM-6; cell proliferation, CellTiter-Glo; 72 h, myeloid haematological cancer).
Cn1ncc(-c2ccc3c(=O)[nH]nc(CN)c3c2)c1-c1c(F)c(Cl)cc(OC2CC2)c1C#N gave an IC50 of 140 nM (SNU668; cell viability, CellTiter-Glo; 120 h).
With COC(=O)c1cc(NC2=NC(=O)C(=Cc3ccc(N(C)C)cc3)S2)ccc1OC(C)=O the metabolite level was 0.13 fold change (MCF7; GC-MS, measured: Spermidine; 1 µM; relative to: DMSO).
Under “log2 fold change”, CC[C@H](CO)Nc1nc(NCc2ccc(-c3ccccn3)cc2)c2ncn(C(C)C)c2n1 is recorded as -2.12 (MOLT-4; tandem mass tag proteomics, measured: Q5SWA1; 1 µM, 5 h; relative to: DMSO).
Under “log2 fold change”, Cn1ncc2cc(-c3cncc(Cl)c3N3CCC4(CCNC4=O)CC3)ccc21 is recorded as -1.36 (LS174T; gene expression, microarray, measured: NPTX1 mRNA; concentration not given, 4 h; relative to: untreated cells).
CCN(CC)CC(=O)Nc1cccc(-n2cc(-c3ccc4ccc(-c5cn(-c6cccc(NC(=O)CN(CC)CC)c6)nn5)cc4c3)nn2)c1 has a fold regulation of -2.1 (RCC4; PCR angiogenesis array, measured: CXCL6; 5 x IC50, 6 h, normoxia; relative to: untreated).
For CN(C)CCOc1cc(NC(=O)c2cccc(C(=O)Nc3cc(OCCN(C)C)c4ccccc4n3)n2)nc2ccccc12, the selectivity ratio was 0.9 (U2OS; cell viability, CellTiter-Glo; 72 h; relative to: IC50 U2OS over WI-38).
C=CC(=O)N1[C@H](c2ccc3c(c2)OCO3)c2[nH]c3ccccc3c2C[C@@H]1C(=O)NC1CC1: “mean neuron degeneration” 22.1% (rat DRG neurons; 1.111 µM, 48 h, added: vincristine 40 nM).
The growth percent of CN(C)CCN1CCN(c2ccc3nc(-c4ccc5nc(-c6ccc(C(F)(F)F)cc6)[nH]c5c4)[nH]c3c2)CC1 is reported as 17.7% (SR; SRB; 10 µM, 48 h).
For CNS(=O)(=O)Nc1nccc(Cc2c(C)c3ccc(Oc4ncccc4F)cc3oc2=O)c1F, the IC50 was > 1000 nM (H4; cell viability, CellTiter-Glo; 7 days).
O=C(CCCCCOc1ccc2ccccc2c1)N[C@@H](CO)C[C@@H](O)c1ccc(-c2ccccc2)cc1 gave a sphingomyelin level of 73300 pmol/sample and 68600 pmol/sample and 63600 pmol/sample (HeLa; CERT activity, HPLC-MS/MS lipidomics, measured: sphingomyelin 24; 1 µM, 24 h, not cell-number normalised).
CO[C@@H]1[C@@H](OC(N)=O)[C@@H](O)[C@H](Oc2ccc3c(O)c(NC(=O)c4ccc(O)c(CC=C(C)C)c4)c(=O)oc3c2C)OC1(C)C gave a colony count of 0.1 (DLD-1 BRCA2-/-; 250 µM, replicate 1).
For Cc1ccc(-n2cc(CSc3nc4ccccc4n3Cc3cn(-c4ccc(C)cc4)nn3)nn2)cc1, the cytotoxicity was 38.6% (Caco-2; MTT; 7.81 ppm).
For O=C(N1CCCC1)n1cc(-c2ccc(-c3ccccc3)cc2)nn1, the SILAC ratio was 1.24 (mouse T cells; N-terminal labelling proteomics, measured: NDRG1 N-terminal peptides; 0.001 µM, 6 h; relative to: DMSO).
For O=C(C[Se]C(=O)c1ccccc1Nc1ccccc1)Nc1cccc(C(F)(F)F)c1, the GI50 was 1680 nM (NCI60 ovarian subpanel; cell growth, inhibitor; five-dose).
With O=CCNCCOn1c(=O)n(OCCNCCO)c(=O)n(OCCNCCOn2c(=O)n(OCCNCCO)c(=O)n(OCCNCCO)c2=O)c1=O the viability was 26.8% (A549; cell growth or viability, MTT; 100 µg/mL, 48 h).
COc1ccccc1-c1ccncc1C(=O)Nc1nnc(OCc2ccc(Cl)cc2)s1 gave a colony survival of 91.8% (MDA-MB-231 (BRCA1 wild-type); colony formation; 0.75 µM; relative to: untreated control).
The apoptotic cells of COc1cc(N2CCOCC2)ccc1Nc1ncc(Cl)c(Nc2ccccc2NS(C)(=O)=O)n1 is reported as 31.4% (PC-9 del19/T790M/C797S cells; annexin V/PI staining; 3 µM, 24 h).
The TGI of C1=[N+]2CCCC[N+]3=Cc4ccc5[n]4[Au-]23[n]2c1ccc2-c1nc2ccccc2nc1-5.F[P-](F)(F)(F)(F)F is reported as 4.28 -log M (UACC-62; NCI60 five-dose screen).
CCN(C(=O)c1cc(F)ccc1Oc1nncnc1N1CCC2(C1)CN([C@H](CCCN(C)CCOC)C(C)C)C2)C(C)C has a GI50 of > 10000 nM (IGROV-1; cell growth or viability; 7 days).
